Measurements from different studies.
A part holds a random share of what one study measured. Substitutions count along the parent as printed.

Study 1
Target: CCNB1, cyclin fold, Cln2 fusion (human)
Method: yeast growth competition, sequencing
Sample: yeast
Notes: weak parent motif
Relative to: not given
Reading: higher = stronger binding
Starting sequence: SCAPER docking peptide (human); SNARRSLNFGGST
Substitution	normalised enrichment score
N2Y	0.26
T13S	0.409
R5V	1.11
L7Y	0.231

Study 2
Target: RNA binding protein fox-1 homolog 2, RRM domain, GST-SBP tag (RBFOX2, Homo sapiens, UniProt O43251-10, residues 100-194)
Method: RNA Bind-n-Seq
Form: RNA
Sample: in vitro
Concentration: 365 nM
Notes: natural RNA segment, single round, ends assumed
Relative to: no-protein control
Reading: higher = stronger binding
Target sequence (chain): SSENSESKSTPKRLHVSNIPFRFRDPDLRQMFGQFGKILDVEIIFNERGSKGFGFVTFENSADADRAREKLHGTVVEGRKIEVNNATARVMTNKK
Sequence	RBNS enrichment (R)
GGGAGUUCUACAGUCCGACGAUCGUCCUAUGACAGAGAAUGACUUAGAGCCACAGGCAUGAGUCCUUGAUAGGCAGGACUGAAAAACCAAAGAGCACAUGCACUGAGCUAUCUUGAAGUCCGUUAUAUGCAGAUGGAAUUCUCGGGUGCCAA	2.76
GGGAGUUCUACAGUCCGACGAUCACACAAAAAAAAAGUCUAAUAAGAACUUUGGUACAGGAACUUUUUUGUAAUAUACAUGUAUGAAUUGUUCAUCGAGUUUUUAUAUUAAUUUUAAUUUGCUGCUAAGCAAAUGGAAUUCUCGGGUGCCAA	0.665
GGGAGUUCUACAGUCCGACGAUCAAGCGCUUACACAUCCCCUCUGGUGCUUGGUUGAACAAGGGAAUCACGAGACAAUGAAAAUGCAGAGACUGAACUUGGGGGUCGUUCUGUGCCUUCCAGCAUCUUGUACAUGGAAUUCUCGGGUGCCAA	1.09
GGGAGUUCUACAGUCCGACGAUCUGGGAGCUGUGGGUCUCUGGCACCUGCUGCUGAUGGACGGCUGCCUGCAGCCCUUCUGCGCCCUGAGGGCUCUGCCAUCACCCACAGACCAGGCAAUCCUGGCCUGGUACUGGAAUUCUCGGGUGCCAA	0.205
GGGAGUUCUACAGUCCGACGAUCUGCCUCCACCUCCUCAAUGCCGUACCACUAUACCAGUUUGAGUGGUGCUGGGUAUGGAACCCAGGGCUUUGUGCAUGCUAGGCGAGCACUUACCAACUGAGCUACAUCCCUGGAAUUCUCGGGUGCCAA	3.57
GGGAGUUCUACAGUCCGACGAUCAGCCUCAACUGUAACCUGCAGCAAACAGAGAAAUAACAUUCCUGGCAGGAAGAUACAAGUCUUUUUAAAGUUUACUGAUGCUUAACUCUGUGGGCUCGUAGUCCUCUGAAUGGAAUUCUCGGGUGCCAA	0.27

Study 3
Target: Ras GTPase-activating protein-binding protein 1, RRM domain (G3BP1, Homo sapiens, UniProt Q13283)
Sequence of UniProt Q13283 (whole entry, looked up): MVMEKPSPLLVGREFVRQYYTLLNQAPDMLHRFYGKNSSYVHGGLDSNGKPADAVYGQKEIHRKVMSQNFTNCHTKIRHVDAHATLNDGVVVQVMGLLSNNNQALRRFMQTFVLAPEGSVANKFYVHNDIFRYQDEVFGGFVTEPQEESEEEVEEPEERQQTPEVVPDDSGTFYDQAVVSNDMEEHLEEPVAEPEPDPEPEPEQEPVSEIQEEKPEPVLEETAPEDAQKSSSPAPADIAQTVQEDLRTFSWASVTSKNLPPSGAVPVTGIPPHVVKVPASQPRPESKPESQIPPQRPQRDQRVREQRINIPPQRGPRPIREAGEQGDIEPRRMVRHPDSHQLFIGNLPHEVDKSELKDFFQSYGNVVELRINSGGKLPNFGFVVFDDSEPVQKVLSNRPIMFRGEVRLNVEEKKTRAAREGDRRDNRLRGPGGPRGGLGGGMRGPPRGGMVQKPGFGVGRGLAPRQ
Method: RNA Bind-n-Seq
Form: RNA
Sample: in vitro
Concentration: 1 µM
Notes: whole 134-nt RNA, ends assumed
Added: 150 mM KCl
Relative to: input library
Reading: higher = stronger binding
Sequence	log2 enrichment
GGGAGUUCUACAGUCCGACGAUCCACAGACAACACGCACCCACACAAAAACAGAGGGAAGGGGUUGGGAUGGGGACAGGGUGCACAGCAGGGCGGGGUAGGACCCCAGCCCCUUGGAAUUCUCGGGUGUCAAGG	-0.112
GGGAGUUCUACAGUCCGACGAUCUAACUUUAGAGGAGGAUCUGAUGGAUAUGGCAGUGGACGUGGAUUUGGGGAUGGCUAUAAUGCGUAUGGAGGAGGACCUGGAGGUGGCAAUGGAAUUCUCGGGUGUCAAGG	-0.275
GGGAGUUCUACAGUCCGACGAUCGCAGGAAGUAAAAACAAAUGGAAAUGCUUCGGAUAGUGGCAGGGGUGGGGGUUGCUAAAGAAAGGGUGGGAUGGGAGUGGGUAAAGAGUUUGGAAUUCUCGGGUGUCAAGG	0.354
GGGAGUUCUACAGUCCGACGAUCGCAGGAAGUAAACACAAAUGGAAAUGCUUCGGAUAGUGGCAGGGGUGGGGGUUGCUAAGGAAAGGGUGGGAUGGGAGUGGGUAAAGAGUUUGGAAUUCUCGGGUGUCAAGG	1.26
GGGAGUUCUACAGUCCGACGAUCUUUUCUGCAUGGACCGUGCCCUAGAAUUUGCCCCUGCCUGCCAUCGCUUCAAAAUCCUCAAGGCAGAAUGUUUAGCAAUGCUGGGUCGUUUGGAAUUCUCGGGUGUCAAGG	-0.112

Other studies, line by line
Molecule	target	assay	test system	setting	how to read	quantity	result
PhoQ, residues 284 288 289 292 302 303 QWQEDG	PhoP, residues 12 14 15 18 19 GQAIL (Escherichia coli, UniProt P23836)	Sort-seq, item: YFP reporter	E. coli	PhoQ-PhoP variant library, added: 10 µM Mg2+	relative to: high Mg2+ state, higher = stronger signaling	fold induction	2.41

Repeated from above (other studies, line by line):
Molecule	target	assay	test system	setting	how to read	quantity	result
PhoQ, residues 284 288 289 292 302 303 QWQEDG	PhoP, residues 12 14 15 18 19 GQAIL (Escherichia coli, UniProt P23836)	Sort-seq, item: YFP reporter	E. coli	PhoQ-PhoP variant library, added: 10 µM Mg2+	relative to: high Mg2+ state, higher = stronger signaling	fold induction	2.41
